Experimental data pooled from the literature.
Every numbered part comes from another study and shows a few of its results, in no order. Substitutions count along the parent as printed.

Sample 1
Target: RING finger protein unkempt homolog, zinc fingers 1-6, GST-SBP tag (UNK, Homo sapiens, UniProt Q9C0B0, residues 30-357)
UniProt Q9C0B0, sequence (30-357, looked up): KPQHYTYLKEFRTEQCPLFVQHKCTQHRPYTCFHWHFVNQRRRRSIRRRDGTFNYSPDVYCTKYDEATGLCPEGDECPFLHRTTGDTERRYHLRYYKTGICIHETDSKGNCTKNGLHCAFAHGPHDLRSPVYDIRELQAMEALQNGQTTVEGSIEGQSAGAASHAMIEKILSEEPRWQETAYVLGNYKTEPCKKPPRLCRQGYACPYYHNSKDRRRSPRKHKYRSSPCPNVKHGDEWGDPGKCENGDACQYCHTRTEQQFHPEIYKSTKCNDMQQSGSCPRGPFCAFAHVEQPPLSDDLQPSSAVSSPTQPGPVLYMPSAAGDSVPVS
Technique: RNA Bind-n-Seq
Form: RNA
Sample: in vitro
Concentration: not given
Setting: RNA with constant flanks, human and mouse sites, ends assumed
Baseline: input RNA pool
Reading: higher = stronger binding
Shared flanks, not repeated: GGGAGUUCUACAGUCCGACGAUC … CAACAGAGGAUUGAGCAUCA
Sequence	bound/input enrichment
UCACCUCAGAACUAUUCCCUAUCAAUCUAAUGCAAACUGUCAACUUAAUCUGACCUUUACUAUUACAGACCUUGUGUCAACUCUUUGGCUCUGCUUUCUAAGCACCUAAGGAAUAAGCUU	0.142 ratio
UUUGCAGCUGAAAGAGAUGAGUAUGGAUCAUAUACAAUGAGUGAGAUAAAUAUUGUUGGCCGAAUUACACUAAAUCUUUGGAGAAUCAUGAGAAAUGAGGUGGCUCUAACUAACUACACC	0.204 ratio
GACAUUCUAAUUGGUACAGACUGAAACCUUUAUAGGAGUUAUGCAGUUCAGAAGUGGACUUUAGGUAAGUCAUUUAUUUUAAGCUGUUGAUAUAGAGAUUUAUUUUCUGUAAAUUUUGAC	3.76 ratio
CUGACUUUAUUUGGAAUUGCUGAUAAGAUCUCCUUUGACCUCAGCCUGGCUCGGGGCCUAGACUACUAUACAGGAGUGAUCUAUGAAGCAGUGCUGCUGCAGACCCCAACUCAGGCUGGG	0.222 ratio
UGCAACCAGCCUCAGGAUGCCAUUAAAUGCUACUUAAAUGCAACUAGAAGCAAAAGUUGUAGUAAUACCUCUGCACUUGCAGCACGAAUUAAGUAUUUACAGGCUCAGUUGUGUAACCUU	0.23 ratio
CCAUGUUUGCCAAAGGCAAAGGCUCGGCGGUGCCCUCGGACGGGCAGGCUCGGGAAAAGUUAGCUUUAUACGUCUACGAAUAUUUACUGCACGUAGGAGCACAGAAAUCUGCACAGACCU	0.19 ratio
GCUCAAAAAGUGUUUUUCAGACCUCGGUAUUCCUAAUGUGGGAUGUGACUUUAUUUUAUUUUUAGUAGCAAAUUUGGAUGUAGACUGACAGACAUAGCUGAAUGUCUUAAUAAAUUUAAA	8.65 ratio
GAGCAGGAUGCACCACUGGCUGCUCGAGUUCCAGGGACAGCUCCAGGUCCUCUGAGCCCCUCACUUUCUGCGGGUGGGGGUCACUUUGUGUGCGUGGACUGUGGGAAGAGGUUCAGCUGG	0.128 ratio

Sample 2
Target: CCNB3, cyclin fold, Cln2 fusion (human)
Technique: yeast growth competition, sequencing
Sample: yeast
Setting: weak parent motif
Baseline: not given
Reading: higher = stronger binding
Starting sequence: WEE1 docking peptide (human); HKTFRKLRLFDTP
Variant	normalised enrichment score
P13F	-0.0927
R5I	0.119
K2L	0.436
L7M	-0.588
H1P	0.0775
T12M	0.586
F4W	0.694
F10M	-0.0609
K2A	0.244
F4D	0.0989
D11H	-0.415
R8F	-0.164
L9V	-0.0656
T3G	0.594
R5W	0.201
R8M	0.328
R5F	-0.0699

Sample 3
Target: ABI1, truncated, D143A, DHFR fusion (Arabidopsis thaliana)
Technique: DHFR PCA, deep sequencing
Sample: yeast
Setting: methotrexate growth selection, single substitutions
Together with: (+)-ABA 0.39 µM
Baseline: wild-type fitted maximum
Reading: higher = stronger binding
Starting sequence: PYL1, truncated, DHFR fusion (Arabidopsis thaliana); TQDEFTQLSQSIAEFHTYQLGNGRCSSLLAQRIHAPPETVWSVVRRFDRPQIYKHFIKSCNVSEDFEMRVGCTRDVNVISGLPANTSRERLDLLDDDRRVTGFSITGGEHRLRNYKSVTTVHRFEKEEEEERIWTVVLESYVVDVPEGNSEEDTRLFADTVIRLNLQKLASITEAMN
Variant	relative binding score [%]
F47T	-15.5
N85H	62.6
R32S	21.2
V40N	-5.49
S87W	26.1
R49Q	58.5
R69P	-3.57
V136M	30.1
L82N	10.2
G107A	27.4
Q7R	33.7
A30H	29.2
S26T	45
L164T	66.8
V62P	-13.2
H122G	-4.12
H110Y	11
E38Y	-1.74
T106W	-5.4
L94I	13.6
E14T	13

Sample 4
Target: Histone acetyltransferase KAT6A, both winged helices, GST fusion (KAT6A, Homo sapiens, UniProt Q92794, residues 1-181)
Technique: protein binding microarray
Form: double-stranded DNA, one strand shown
Sample: in vitro
Concentration: not given
Setting: 8-mer, flanks averaged, mean of 2 arrays, mostly near background
Baseline: not given
Reading: higher = stronger binding
Residues (chain): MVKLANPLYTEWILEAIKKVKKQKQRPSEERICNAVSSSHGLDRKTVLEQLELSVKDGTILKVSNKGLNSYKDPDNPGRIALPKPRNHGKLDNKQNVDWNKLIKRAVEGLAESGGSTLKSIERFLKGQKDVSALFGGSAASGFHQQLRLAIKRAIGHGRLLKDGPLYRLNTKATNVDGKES
Sequence	E-score
AAAATTAC	-0.0794
TCACCTGA	-0.0815
TACATTCA	-0.072
GCACTCCC	-0.0263
CAGAACTG	-0.0551
AATGTAGT	-0.129
AGGCCCCA	-0.0533
GAAAAGCC	0.0983
AGGGCCCT	-0.162
GCGCACCA	0.175
ACTTCACT	-0.0939
GGTGTCTA	-0.146
ACGGACAA	0.175
GGTTATGA	-0.166
GAATAGAA	-0.134
CCATGATA	-0.0615
GACTGACA	-0.0309
CGAGGCAG	-0.0375
AAAACGCC	0.0728
CACACAAA	-0.175
GCAGATGC	-0.0626
TACCATCA	-0.168
GCTAGTCA	-0.095
CTGTCTCA	-0.144
CGAATCAC	-0.0452

Repeated from above (sample 3):
Variant	relative binding score [%]
N85H	62.6
R32S	21.2
V40N	-5.49
S87W	26.1
R49Q	58.5
R69P	-3.57
V136M	30.1
L82N	10.2
G107A	27.4
Q7R	33.7
A30H	29.2
S26T	45
